Experimental data from different studies.
Each numbered part is a random draw from the data of one study; scales do not carry over between parts. Several values in a cell are separate wells, animals, samples, runs or records.

Series 1 — host: mouse; medium: microsomes or S9; tested at: 2 µM; time: 0.5 h
SMILES | remaining compound [%]
Cn1cc(Br)c(=O)c(NC(=O)c2ccc(O)cc2F)c1 | 56.4
Oc1ccc(Oc2nc3ccccc3nc2Oc2ccc(O)cc2)cc1 | 78.1
Cc1cc(C)c2nc(-c3ccc(Cl)s3)cc(C(=O)O)c2c1 | > 100
O=C(CCN1C(=O)c2ccccc2N2C(=O)c3ccccc3C12)NCC1CCOCC1 (centres unmarked) | 20.1
CCC(CO)Nc1ncc2cc3ccccc3nc2c1C#N (centres unmarked) | 13.9
CCN1CC(NC(=O)c2cc3n(n2)CCC3)CC1=O (centres unmarked) | 99.3
O=C(CCS(=O)(=O)c1ccccc1)N(Cc1ccccc1)c1nc2ccccc2s1 | 4.15
COc1ccccc1CNC(=O)CCCCn1c(=O)c2ccccc2n(Cc2ccccc2C#N)c1=O | 2.19
O=C(Cc1csc(COc2ccccc2)n1)NCCc1c[nH]c2ccccc12 | 0.762
CCCN1CCN(C(=O)C2=C(C)C(=O)OC23CCN(S(=O)(=O)CC)CC3)CC1 | 94.8
Oc1c(Cl)c(Nc2ccccc2)c(O)n1-c1ccccc1 | 20.2
c1ccc(-n2ccc3cnc(N4CCCCC4)nc32)nc1 | 0.0479

Series 2 — effect on: enzyme activity; mode: inhibitor; tested at: 0.5 µM; reference: control
Target: Serine/threonine-protein kinase N1 (PKN1, Homo sapiens, UniProt Q16512)
Sequence of UniProt Q16512 (whole entry, looked up): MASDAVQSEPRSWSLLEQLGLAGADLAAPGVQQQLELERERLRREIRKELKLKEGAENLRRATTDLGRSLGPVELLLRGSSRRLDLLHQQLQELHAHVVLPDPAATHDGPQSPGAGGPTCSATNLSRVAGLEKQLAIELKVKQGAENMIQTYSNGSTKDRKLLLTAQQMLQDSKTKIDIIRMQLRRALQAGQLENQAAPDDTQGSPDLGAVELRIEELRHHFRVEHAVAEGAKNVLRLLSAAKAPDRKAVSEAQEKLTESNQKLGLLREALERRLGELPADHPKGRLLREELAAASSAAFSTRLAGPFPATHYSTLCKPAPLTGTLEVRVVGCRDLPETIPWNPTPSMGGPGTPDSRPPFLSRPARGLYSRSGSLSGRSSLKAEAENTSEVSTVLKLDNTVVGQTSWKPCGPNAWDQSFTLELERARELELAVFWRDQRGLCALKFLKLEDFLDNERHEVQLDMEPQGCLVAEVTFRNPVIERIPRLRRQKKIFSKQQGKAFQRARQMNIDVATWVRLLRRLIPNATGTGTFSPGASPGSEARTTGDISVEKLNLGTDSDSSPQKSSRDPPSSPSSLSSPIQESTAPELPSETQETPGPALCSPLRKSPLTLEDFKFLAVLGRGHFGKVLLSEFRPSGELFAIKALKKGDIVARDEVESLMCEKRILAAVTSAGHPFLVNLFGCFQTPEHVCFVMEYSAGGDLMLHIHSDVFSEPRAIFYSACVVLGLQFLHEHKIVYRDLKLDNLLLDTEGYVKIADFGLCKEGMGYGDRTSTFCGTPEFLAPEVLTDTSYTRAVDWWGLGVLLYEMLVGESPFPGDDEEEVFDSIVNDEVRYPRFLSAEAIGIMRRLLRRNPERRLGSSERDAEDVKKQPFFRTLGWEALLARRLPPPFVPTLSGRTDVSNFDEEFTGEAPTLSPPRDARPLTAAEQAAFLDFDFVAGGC
SMILES | remaining activity [%]
Cn1nc2c3c(cccc31)C(=O)c1ccccc1-2 | 101
Ic1cccc(CSc2nnc(-c3ccncc3)o2)c1 | 98.6
CN(C)C[C@H]1CCn2c(c(C3=C(c4cn(C)c5ccccc45)C(=O)NC3=O)c3ccccc32)C1 | 7.06
COc1cc2ncnc(Nc3ccc(O)c(Br)c3)c2cc1OC | 95.6
O=C1c2ccccc2-c2n[nH]c3cccc1c23 | 90.6
CCN(CC)CCNC(=O)c1c(C)[nH]c(/C=C2\C(=O)Nc3ccc(Cl)cc32)c1C | 36.5
O=C(NC(NC(=S)Nc1ccc(F)c([N+](=O)[O-])c1)C(Cl)(Cl)Cl)C(c1ccccc1)c1ccccc1 (centres unmarked) | 92.8
O=c1cc(-c2cccc3c2Sc2ccccc2S3)oc(N2CCOCC2)c1 | 94.4
N#C/C(=C\c1ccc(O)c(O)c1)C(=O)NCc1ccccc1 | 97.6
c1ccc(-c2cnc(Nc3ccc(OCCN4CCCC4)cc3)s2)cc1 | 94.8
CCOc1nc(NC(=O)Cc2cc(OC)ccc2OC)cc(N)c1C#N | 104
COc1cc2c(cc1OC)-c1[nH]nc(Nc3cccc(F)c3)c1C2 | 106
Cc1nc2cc3nc(-c4cccs4)cnc3cc2n1C | 96.5
O=C1C(Cl)=C(N2C(=O)CCC2=O)C(=O)c2ccccc21 | 108
COc1cc2ncnc(Nc3cccc(Cl)c3)c2cc1OC | 96.8
O=C(Nc1cccc(Nc2nccc(Nc3cccc(C(F)(F)F)c3)n2)c1)C1CC1 | 93.3
C[C@@H]1CCN(C(=O)CC#N)C[C@@H]1N(C)c1ncnc2[nH]ccc12 | 16.5
Nc1cccc(-c2cc3c(Oc4cccc(O)c4)ncnc3[nH]2)c1 | 105
N#Cc1c(NC(=O)c2cccc3ccccc23)sc2c1CCCC2 | 108
Cc1cn(-c2cc(NC(=O)c3ccc(C)c(Nc4nccc(-c5cccnc5)n4)c3)cc(C(F)(F)F)c2)cn1 | 102
Cc1cc2ncc(-c3ccccc3)nc2cc1C | 92.5
CCN(CC)C(=O)c1ccc(Nc2nc(OCC3CCCCC3)c3[nH]cnc3n2)cc1 | 78.9
CCN(CC)CCNC(=O)c1c(C)[nH]c(/C=C2\C(=O)Nc3ccc(F)cc32)c1C | 71.4
c1ccc(-c2[nH]ncc2-c2ccnc3ccccc23)nc1 | 100

Series 3 — cell line: normal organoid sample F; technique: CellTiter-Glo; host: human; medium: normal-adjacent epithelium; tested at: 1 µM; reference: DMSO
Structure (SMILES) | viability
CCC(=O)N[C@@H]1CC[C@H](C(=O)N(C)c2ccc(-c3nc4ccccc4o3)cc2)C1 | 112% and 98.9%
C[C@H](c1cccc(C#N)c1)n1cc(Cl)cc(C(N)=O)c1=N | 143% and 128%
Cn1cncc1[C@](O)(COc1ccc(C#N)cc1-c1ccc(OC(F)(F)F)cc1)c1ccc(C#N)cc1 | 69.4% and 45.2%
CC(=O)N1CCC(c2ccc(C(=O)NC3=NCCN3)cc2C(F)(F)F)CC1 | 114% and 112%
Cc1nc(C2CCN(C(=O)c3ccc(OC(F)(F)F)cc3N)CC2)c2ncc(N3CCN(C)CC3)cc2n1 | 78% and 139%

Series 4 — cell line: mouse MPNST tumor cells; technique: high-content nuclear imaging; measured: cell number; tested at: 10 µM; time: 12 h; setting: mean of 2 replicates; reference: plate mean; reading: higher = more cells
Structure (SMILES) | nuclei count [z-score]
OC[C@H]1O[C@@H](n2cnc3c2N=CNC[C@H]3O)C[C@@H]1O | 1.14
CCCCCCC(=O)OC1CC(C)(C)NC(C)(C)C1 | 0.525
O=C(NC[C@H](O)CN1CCc2ccccc2C1)c1cc(NC2COC2)ncn1 | 1.38
c1ccc(-c2[nH]ncc2-c2ccnc3ccccc23)nc1 | -2.27
CN1CCN(CCCN2c3ccccc3Sc3ccc(C(F)(F)F)cc32)CC1 | -7.28
O=[N+]([O-])c1cccc2cn[nH]c12 | -0.962
O=C(Nc1cccc2c(=O)cc(-c3nnn[nH]3)oc12)c1ccc(OCCCCc2ccccc2)cc1 | 0.423
COc1ccc(C[C@H](NC(C)=O)C(=O)N[C@H]2[C@@H](O)[C@H](n3cnc4c(N(C)C)ncnc43)O[C@@H]2CO)cc1 | 1
CCCCc1oc2ccc(NS(C)(=O)=O)cc2c1C(=O)c1ccc(OCCCN(CCCC)CCCC)cc1 | -5.07

Repeated from above (series 2):
SMILES | remaining activity [%]
CN(C)C[C@H]1CCn2c(c(C3=C(c4cn(C)c5ccccc45)C(=O)NC3=O)c3ccccc32)C1 | 7.06
O=C(NC(NC(=S)Nc1ccc(F)c([N+](=O)[O-])c1)C(Cl)(Cl)Cl)C(c1ccccc1)c1ccccc1 (centres unmarked) | 92.8
Cn1nc2c3c(cccc31)C(=O)c1ccccc1-2 | 101
c1ccc(-c2cnc(Nc3ccc(OCCN4CCCC4)cc3)s2)cc1 | 94.8
O=C(Nc1cccc(Nc2nccc(Nc3cccc(C(F)(F)F)c3)n2)c1)C1CC1 | 93.3
O=c1cc(-c2cccc3c2Sc2ccccc2S3)oc(N2CCOCC2)c1 | 94.4
